Published values gathered from unrelated publications.
Several values in a cell are separate wells, animals, samples, runs or records.

CC(C)C[C@H](NC(=O)[C@H](CO)NC(=O)[C@H](CO)NC(=O)CNC(=O)[C@@H]1CCCN1C(=O)[C@H](Cc1ccc(O)cc1)NC(=O)[C@H](CC(C)C)NC(=O)[C@H](CO)NC(=O)[C@H](CS)NC(=O)[C@H](CC(C)C)NC(=O)[C@H](CC(C)C)NC(=O)CNC(=O)[C@H](CC(C)C)NC(=O)[C@H](Cc1ccccc1)NC(=O)CNC(=O)[C@@H]1CSSC[C@H](N)C(=O)N[C@@H](Cc2c[nH]cn2)C(=O)N[C@@H](CO)C(=O)N[C@@H](Cc2c[nH]cn2)C(=O)NCC(=O)N[C@@H]([C@@H](C)O)C(=O)N[C@@H](CCCNC(=N)N)C(=O)N[C@@H](C)C(=O)N1)C(=O)O — inhibition (A-431; EGFR phosphorylation, flow cytometry, item: EGFR phospho-Tyr1173; 10 µM, together with: EGF 20 ng/mL; baseline: EGF-stimulated control): ~30%
Cc1nc2c(F)cc(-c3nc(Nc4ccc(CNC(=O)CCCCCC(=O)NO)cc4)ncc3F)cc2n1C(C)C — inhibition (NCI-H460; cell growth or viability, CCK-8; 0.3 µM, 48 h): 89.5%
CCC(=CCc1c(O)cc2c(c1O)C(=O)CC(c1ccc(O)cc1)O2)CC (stereo not shown) — inhibition (HeLa; cell growth or viability, MTT; 100 µM, 48 h): 97.2%
CC(=O)O[C@H]1OC[C@@H]2C=C([C@@]3(C)CCCC(C)(C)C3)CC[C@H]12 — inhibition (human T lymphocytes; IL-2 release, item: IL-2; concentration not given, 24 h, together with: concanavalin A): 26%
C=CC(=O)N1CCC2(CCN(Cc3ccccc3)C2)C1 (stereo not shown) — inhibition (MCF7, 14-3-3σ knockdown vs control; YAP/TAZ-TEAD reporter; 10 µM, 24 h): decreased
COc1cc(C(=O)N2CC[C@@H](O)[C@@H](N)C2)cc2nc(-c3cc4cccnc4n3CC3CC3)n(C)c12 — inhibition (human neutrophils; protein citrullination, inhibitor, flow cytometry, item: citrullinated histone H3; 1 µM, together with: ionomycin): 60.7% and 36.1% and 45.5% and 54.5%
CN1CCN(C(=O)c2ccc(-c3cc4c(N5CCC[C@H](C(=O)NCc6ccc(OC(F)(F)F)cc6)C5)ncnc4[nH]3)cc2)CC1 — inhibition (NCI-H3122; cell growth or viability, MTT; 1 µg/mL, 72 h): 63%
COc1cccc2c1cc1c3c(cc4c(c32)OCO4)[C@@H]2c3c4c5c(cc6c(c5c5cccc(OC)c35)OCO6)CCN4[C@@H]2N1C (racemic) — inhibition (HuCC-A1; cytotoxicity, MTT; 50 µg/mL, 48 h): < 50%
Cc1cc(NC2CCN(C)CC2)ccc1-c1cc2c(N3CCC[C@H](C(=O)NCc4ccc(OC(F)(F)F)cc4)C3)ncnc2[nH]1 — inhibition (NCI-H3122; cell growth or viability, MTT; 0.2 µg/mL, 72 h): 52.7%
Cc1nc2c(F)cc(-c3nc(Nc4ccc(CNC(=O)CCCC(=O)NO)cc4)ncc3F)cc2n1C(C)C — inhibition (NCI-H460; cell growth or viability, CCK-8; 0.3 µM, 48 h): 98.8%

Repeated from above:
CC(=O)O[C@H]1OC[C@@H]2C=C([C@@]3(C)CCCC(C)(C)C3)CC[C@H]12 — inhibition (human T lymphocytes; IL-2 release, item: IL-2; concentration not given, 24 h, together with: concanavalin A): 26%
